Measured values gathered from unrelated publications.
Parts stem from different laboratories: compare values within a part only. Substitutions count along the parent as printed.

Set 1
Target: RNA binding protein fox-1 homolog 2, RRM domain, GST-SBP tag (RBFOX2, Homo sapiens, UniProt O43251-10, residues 100-194)
Method: RNA Bind-n-Seq
Form: RNA
Matrix: in vitro
Concentration: 365 nM
Setting: natural RNA segment, single round, ends assumed
Reference: no-protein control
Reading: higher = stronger binding
All sequences stand within: GGGAGUUCUACAGUCCGACGAUC … UGGAAUUCUCGGGUGCCAA
Target sequence (chain): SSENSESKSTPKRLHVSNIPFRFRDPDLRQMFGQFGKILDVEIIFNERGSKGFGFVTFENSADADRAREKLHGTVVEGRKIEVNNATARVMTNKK
| Sequence | RBNS enrichment (R) |
| --- | --- |
| GGCCUAAGAUUUUGAGUUAACAUCUCUUGAAGCCAAACUCCACCUUCUGUGCUUUUUGCUUGGGAUAAUGGAGUUUUUCUUUAGAAACAGUGCCAAGAAUGACAAGAUAU | 0.25 |
| CUGUUACACUCUAGGAUCUCUCACAGGUCUGUGGCAAUUACUGUUCAUGAUUUCCUGAAAAAAUAUUUUUUUAAAAGAAAACUAUUUUUUUUAAAUACUAGAGAGACAGU | 0.628 |
| CCCACCAACUCGGAGCCCGCCUGGCUCCAGUGCCCAGCAGCAGCAUGUCAGCUGAGCCUCCUGCCCUCCCCCAGGAACAUGCACGCUCACUCUGCUUCCUUGUGGGUGGC | 17.3 |
| UGUGUGUUGAGGCUAAGUUGGUGGGUUGGGUUGGCUUCUUAACAUCAAGAAACUGAAUGGAGCUCCACACCUCUAGAUCUCAAUGAUUCGGUUGGCUUCUCAGUGGAACC | 0.756 |
| GGCCUGCCUGUUCCCAUUCUUGCAUGGCAAGGACUGCAGGGACUGCCAGUCCCCCUGCCCCAGGGCUCCCGGCUAUGGGGGCACUGAGGACCAGCCAUUGAGGGGUGGAC | 2.1 |
| CCACAUUACCAUCAAGCCCUUGACAUUCGCAGCACUUGCUGUGGGGAAAGCAGGCCAAGAACUUGUCAUGUGCCCCAUCCACUUCGAGGCUGGAUGGGAUGGGGCUCCAA | 0.637 |
| UGGUUUGGUUCUUGUUUCAGCCCAAUAUGUAGAGAACAUUUGAAACAGUCUGCACCUUUGAUACGGUAUUGCAUUUCCAAAGCCACCAAUCCAUUUUGUGGAUUUUAUGU | 0.683 |
| AAUUCCAUCUCUAAUCUUGGAUAAUACUGGUUGGUUAACAAUAAAGUGACAAAAGCUCCCGCCUUGGAGGUCCGCUGUUGUUAUUUAACGUGGUUUCGCACGUAGCUCUU | 0.587 |

Set 2
Target: DBP, bZIP domain (human)
Method: DHFR protein complementation
Matrix: yeast
Setting: single substitutions, most at no-binding floor
Reference: wild-type JUN-FOS pair
Reading: higher = stronger binding
Parent: JUN, bZIP domain (human); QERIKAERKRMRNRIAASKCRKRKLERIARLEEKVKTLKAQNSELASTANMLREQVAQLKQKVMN; partner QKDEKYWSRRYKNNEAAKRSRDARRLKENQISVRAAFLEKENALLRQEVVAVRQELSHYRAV
| Change | binding fitness |
| --- | --- |
| T48Y | -1.58 natural log |
| R53F | -1.41 natural log |
| L45E | -1.59 natural log |

Set 3
Target: Fragile X messenger ribonucleoprotein 1, C-terminal low-complexity region (Fmr1, Mus musculus, UniProt P35922)
Method: RNA Bind-n-Seq
Form: RNA
Matrix: in vitro
Concentration: 200 nM
Setting: whole 134-nt RNA, ends assumed
Together with: 150 mM KCl
Reference: input library
Reading: higher = stronger binding
All sequences stand within: GGGAGUUCUACAGUCCGACGAUC … UGGAAUUCUCGGGUGUCAAGG
| Sequence | log2 enrichment |
| --- | --- |
| AGUCCUGUGCUACACAUCGUAUGUACCGAAUCAAACCCAAAUUUUUAAACCCCCAAAAAAGUAUUAUGUUACGCCGUUCGGAUCUGCACU | -0.182 |
| GUCCUGUGCUACACAUCGUAUGUACCGAAUCGGGGUUUGGGGAAAAAGGGGAAAGGGGAAAGUAUUAUGUUACGCCGUUCGGAUCUGCAC | 0.311 |
| UGGACUUGCGGGUUCCCAUCUGGGACCAGGACAUACAGUUUCUCCCAGGAUCACAGAAGCUUGUCACCUGCACAGGGUACCACCAGGUAA | -0.535 |
| UGGCCCUGGUGGCAUGCGGGGAGGAAGAGGUGGCCUCAUGGAUCGUGGUGGUCCCGGUGGAAUGUUGAGAGGUGGCCGUGGUGGAGACAG | 0.0483 |
| UUCCUCAAGUCCUGUGCUACACAUCGUAUGUACCGAAUCGGUGGUGGAGGAAAGUAUUAUGUUACGCCGUUCGGAUCUGCACUUCCAGCA | -0.66 |
| AAGUCCUGUGCUACACAUCGUAUGUACCGAAUCGGAAAAGGGAAAAGGAAAAGGGGAAAGUAUUAUGUUACGCCGUUCGGAUCUGCACUU | -0.482 |

Single results of other studies
| Molecule | target | assay | test system | setting | how to read | endpoint | result |
| --- | --- | --- | --- | --- | --- | --- | --- |
| PhoQ, residues 284 288 289 292 302 303 SSLVEF | PhoP, residues 12 14 15 18 19 NHFRA (Escherichia coli, UniProt P23836) | Sort-seq, item: YFP reporter | E. coli | PhoQ-PhoP variant library, together with: 10 µM Mg2+ | reference: high Mg2+ state, higher = stronger signaling | fold induction | 2.02 |

Excerpt of the above (set 1):
| Sequence | RBNS enrichment (R) |
| --- | --- |
| CUGUUACACUCUAGGAUCUCUCACAGGUCUGUGGCAAUUACUGUUCAUGAUUUCCUGAAAAAAUAUUUUUUUAAAAGAAAACUAUUUUUUUUAAAUACUAGAGAGACAGU | 0.628 |
| CCCACCAACUCGGAGCCCGCCUGGCUCCAGUGCCCAGCAGCAGCAUGUCAGCUGAGCCUCCUGCCCUCCCCCAGGAACAUGCACGCUCACUCUGCUUCCUUGUGGGUGGC | 17.3 |
| UGUGUGUUGAGGCUAAGUUGGUGGGUUGGGUUGGCUUCUUAACAUCAAGAAACUGAAUGGAGCUCCACACCUCUAGAUCUCAAUGAUUCGGUUGGCUUCUCAGUGGAACC | 0.756 |
